Measurements gathered from unrelated publications.
Compare with care: the assays were run in different laboratories.
Target: Carbonic anhydrase 12 (CA12, Homo sapiens, UniProt O43570)
Chain of UniProt O43570 (whole entry, looked up): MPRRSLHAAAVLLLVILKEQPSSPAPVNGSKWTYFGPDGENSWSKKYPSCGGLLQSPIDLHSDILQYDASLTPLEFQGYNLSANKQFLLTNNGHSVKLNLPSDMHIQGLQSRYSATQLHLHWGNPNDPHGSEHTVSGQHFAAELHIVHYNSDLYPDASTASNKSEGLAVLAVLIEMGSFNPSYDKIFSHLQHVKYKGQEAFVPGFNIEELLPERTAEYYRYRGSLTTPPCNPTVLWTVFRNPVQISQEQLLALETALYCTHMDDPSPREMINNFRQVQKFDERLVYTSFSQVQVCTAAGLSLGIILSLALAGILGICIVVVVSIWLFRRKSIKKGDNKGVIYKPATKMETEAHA

Compound	assay	how to read	selectivity ratio
COc1cc(-c2ccnc3nc(Nc4ccc(S(N)(=O)=O)cc4)nn23)cc(OC)c1OC	stopped-flow CO2 hydrase	reference: Ki hCA I over Ki CA12	38.6
NS(=O)(=O)c1ccc(CCn2c(SCC(=O)N/N=C/c3ccccc3O)nc3ccccc3c2=O)cc1	inhibitor, stopped-flow	reference: Ki hCA I over Ki hCA XII	13
NS(=O)(=O)c1c(F)c(NCCc2ccc(O)cc2)c(SCCO)c(NC2CCCCCCCCCCC2)c1F	thermal shift	reference: Kd CA II over Kd CA XII	> 400
COCCOc1cc2ncnc(Nc3cccc(-c4cn(CCc5ccc(S(N)(=O)=O)cc5)nn4)c3)c2cc1OCCOC	–	reference: Ki hCA II over Ki hCA XII	0.05
NS(=O)(=O)c1c(F)c(F)c([S+]([O-])CCO)c(F)c1NC1CCCCCCC1 (stereo not drawn)	thermal shift	reference: Kd CA XII over Kd CA II	0.1
CCOC(=O)CSc1nc2ccccc2c(=O)n1CCc1ccc(S(N)(=O)=O)cc1	inhibitor, stopped-flow	reference: Ki hCA II over Ki hCA XII	0.6
CC(C)(C)Nc1c(F)c(S(N)(=O)=O)c(F)c(F)c1S(=O)(=O)CCc1ccccc1	thermal shift	reference: Kd CA XII over Kd CA II	39
COc1cccc(/C=N/NC(=O)CSc2nc3ccccc3c(=O)n2CCc2ccc(S(N)(=O)=O)cc2)c1	inhibitor, stopped-flow	reference: Ki hCA I over Ki hCA XII	12.8
NS(=O)(=O)c1ccc(Nc2nc3nccc(-c4ccc5ccccc5c4)n3n2)cc1	stopped-flow CO2 hydrase	reference: Ki hCA II over Ki CA12	5.2

For quick reference, copied from above:
Compound	assay	how to read	selectivity ratio
COc1cc(-c2ccnc3nc(Nc4ccc(S(N)(=O)=O)cc4)nn23)cc(OC)c1OC	stopped-flow CO2 hydrase	reference: Ki hCA I over Ki CA12	38.6
